Measurements pooled from the literature.
Parts stem from different laboratories: compare values within a part only.

Study 1 — technique: RNA Bind-n-Seq; molecule type: RNA; matrix: in vitro; concentration: 365 nM; baseline: no-protein control; direction: higher = stronger binding; quantity: RBNS enrichment (R)
Target: RNA binding protein fox-1 homolog 2, RRM domain, GST-SBP tag (RBFOX2, Homo sapiens, UniProt O43251-10, residues 100-194)
Notes: natural RNA segment, single round, ends assumed
Constant ends, left off below: GGGAGUUCUACAGUCCGACGAUC … UGGAAUUCUCGGGUGCCAA
Construct (chain): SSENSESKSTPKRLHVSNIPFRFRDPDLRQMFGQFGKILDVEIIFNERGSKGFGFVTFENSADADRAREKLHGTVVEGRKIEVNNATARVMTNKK
AGAAGAAACAUUCCAAAAUCAGGGCCUCCCUGUUCUUUCCUCCCCAUCCCUAGCUCCUGCAAGAGAAAGUCCAGGCUUUGGGAGCAGAUGGCAGAGGGAGGGAGUAAAGA: 0.295
GUAAAUGUUUUUUGGAGCUAGAUUAGCUGCCUGCCAACCUUAGAACUGCAAAGCCAUUCCUGACCUGUAAACCUCAGCUCUCCAUCUCUAUAAGAGGUAUAGCCUGGGCU: 1.78
AAGUUCUUUUUAGCUCAUUCACAAUCACUUGUGUGUUAAGUGUUAAUAUCUGUCAUGAACCUGCCAAUUUGUACGUGUUAAGCAGCUGACAGAUGAUGCAAAAAAAACUA: 2.36
AAUGAAAAGUUGCAUACUUAUUGAUGUAUUGUAUGAGCCAGUAGCAUUUUAUGUACAAAACAGAAGUCAAUGCAACAGUAUGUAUGUGUGCCUGUGUGUGUAUAAAAAUA: 2.82
AUUCAGCAUCUGAGGGCUGCAAGUACAGAAGGAAUCUAUUCUCAGCAGGGCAUAGGGCACGCACUGGCUUAACAGUUUAGUAUAUAAGGCUCAAAUAGUCUAUACCUGAA: 0.309
ACGAAUCUGCCCACGGUAGUCAGGUCCCCUGAGCUCUGGACUGGAAGUGGAACUGUGUUCCUGCCAGCCUCUGUAAUGACUGAAGAAAUACAGGGUUUUGAAAACAUGAA: 0.969
GCUCACUUUUGCUCAAUACCUAUCAAAAGCUUGUCCCAGAGUGAUUAUGGAGGAUUGCAUGCAGGAUACACACUUCAUUAAAUCCUCUAAAAUCUAACUUUGAUUAAUUA: 1.41
CACUCACCACACACACUUCCUUCAAAAGACCAAAAGUGACUGGUGUCUCGUGUGACAGAUUGCUUCAUUUAUGUUUCUACAUAGUAAGGUGACUGCCAAAUAAUAUUUGA: 0.327
UAUAAUGAAAAGAGGAAGAAGUUUGAGAAAAAGACUGAAUAAUAUCUCACGUAAACCUUCCUGAAAGAUAAACGUUUUCCUGAAUUCAGAAACUAGUAGCUAACAUUGCU: 0.579
GCCUUGAAAGGGAGCAGAGAGUGGCUGGAGAAUCAAUUCUGACACCGGCUAAAGUUGCAGCUGUUGUAUCUGGUUUCUGUGAGUCCUGCACCAAGUUCAGCCCAAAAUGA: 0.724
UCUGAGAGUCUUGUACUCACCUCUGAAAUUUAAAAACGUAUAAAGAGAGCCUGGGUUAAUCAGUUCUGCAGCCCCUACGUGACACUGUGCUAGUUCUCCUUCUUCUGUCU: 0.444
UCUCACUGAGCUCCUCGCCCCAAAUAUCCCGGUGCUGCCCCUGCUGUCCAGGCUCCAGUGUGACAAUGGGUUGAGUCUCCAGGCCCUGGCCAGGACAUCCUGCUAUCAAU: 0.359

Study 2 — technique: protein binding microarray; molecule type: double-stranded DNA, one strand shown; matrix: in vitro; concentration: not given; baseline: not given; direction: higher = stronger binding; quantity: E-score
Target: Histone acetyltransferase KAT6A, winged helix 2, GST fusion (KAT6A, Homo sapiens, UniProt Q92794, residues 85-181)
Notes: 8-mer, flanks averaged, mean of 2 arrays, mostly near background
Target sequence (chain): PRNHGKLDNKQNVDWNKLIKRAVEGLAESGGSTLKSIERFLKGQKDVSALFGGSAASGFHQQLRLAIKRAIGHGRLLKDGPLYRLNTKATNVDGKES
AGTGAATA: 0.00617
AAAGATCG: -0.0383
TCTTTCAA: 0.0146
AATTTCGC: 0.0564
CGGCCCCC: -0.00095
CCGCGAAC: 0.117
ACTCTTAA: -0.188
ATCGGTTC: 0.0526
AGGAGAAC: -0.0775
TGGCTGAA: 0.101
CTGTCCAC: 0.068
ACAATCCA: -0.0246
AGCAAGGC: 0.13
CTGACCTC: -0.00572
ATGTCTGC: 0.0127
ACGTGGCG: -0.0792
ACTCGGGA: 0.118
CGACGGTA: -0.0466
GTGATCAA: 0.0772
CGTCTCAC: -0.0617
CGGCCTGC: 0.128
ACCGAATA: -0.0296

Study 3 — technique: competition protein-binding microarray; molecule type: double-stranded DNA, one strand shown; matrix: in vitro; concentration: 2 µM; added: Pho4 competitor, 0.05 µM; direction: higher = stronger binding; quantity: fluorescence intensity; constant ends, left off below: … GTCTTGATTCGCTTGACGCTGCTG
Target: Centromere-binding protein 1, full length, His-tagged (CBF1, Saccharomyces cerevisiae, UniProt P17106, residues 1-351)
Chain of UniProt P17106 (whole entry, looked up): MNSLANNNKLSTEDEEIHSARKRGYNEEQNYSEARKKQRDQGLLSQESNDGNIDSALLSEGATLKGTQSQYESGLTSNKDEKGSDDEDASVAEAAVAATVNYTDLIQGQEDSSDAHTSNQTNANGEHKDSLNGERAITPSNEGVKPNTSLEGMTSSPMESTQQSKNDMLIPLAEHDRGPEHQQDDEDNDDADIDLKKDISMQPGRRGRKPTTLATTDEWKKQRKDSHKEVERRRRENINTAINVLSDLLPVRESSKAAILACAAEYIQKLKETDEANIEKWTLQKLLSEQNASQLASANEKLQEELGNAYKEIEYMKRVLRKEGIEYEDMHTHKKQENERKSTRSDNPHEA
Notes: whole 60-bp probe, lowest competitor level
CGACACAAAAAAGAACCCGTGCAAATATTATATCCC: 304 a.u.
AACCAGCATTATTTGCACGCAAGGCCCATTGAAAAG: 79.6 a.u.
TGCGCAACAACTTGGTATGTGGGTGTATGTCTAGAA: 69.7 a.u.
CTTTCCCGATCTTGAGTGGTGGGTGTAGCACATTTG: 66.3 a.u.
AAAGCGGTAATTTGTCACGGGACTTCACATATCTAT: 1650 a.u.
CGTCCTAGCGATTGACATGTGGGTGCCATGAGGAAG: 100 a.u.
GTCTTGTCTCATTGTGCCGTGGGTGTCCCCACTTCA: 101 a.u.
ACTTCATTCGGTGCTTCCGTGACGGGTTCAACGGCT: 77.8 a.u.
TCGTTTCCTAACTGGCACGTCACTTATAACGAGGTG: 74 a.u.
AAAGCGGTAATTTGTTGGGTGGGTGCAGATATCTAT: 81.4 a.u.
TCTCCACCTCTACGACCCGTGCGGAAGGTGGAAACC: 66.5 a.u.
CATACCCAACCTTAGCACGTGTTTTAAGATATTTGT: 2250 a.u.
ACAAATGGTAACTGGCACGTTAATTGGTTTAACATT: 102 a.u.
CGGGGTTAAGTTTGGCAAGTGGGTGGCTTGCAGCAG: 81.4 a.u.
GGAATTCCAGCACCACTCGTGCAAAACGTACCAAAT: 90.4 a.u.
TATAAGTATCCTTCAGACGTGCAAATTCTTCAGGGC: 80.6 a.u.
CCTTGTCCAATTCAACACGCTCGATGAAAAAAATAA: 84.3 a.u.
TGAACGAAAAGTGTAGGCGTGCCAGAAATGTCAACA: 103 a.u.
GATCTGGTCGTACGGCCCGTGCTTTCAGAATTGGTG: 94.6 a.u.
CGTCCTAGCGATTAACACGTGTTTTCCATGAGGAAG: 2500 a.u.
CAATCCGCAATTTAGCACGTGCCAGATCCCACCGAC: 3060 a.u.
CTAACGAAGGTTTGGTAAGTGGGTGACAAGCCAAGT: 71 a.u.
TGCGCAACAACTTGTCACCTCACTTTATGTCTAGAA: 63.3 a.u.

Study 4 — technique: protein-binding microarray; molecule type: double-stranded DNA, one strand shown; matrix: in vitro; concentration: 2200 nM top; notes: 60-bp whole probe; added: salmon DNA 0.4 mg/ml; baseline: random background probes; direction: higher = stronger binding; quantity: fitted relative affinity; constant ends, left off below: GCCTAGCAC … GTCTTGATTCGCTTGACGCTGCTG
Target: Interferon regulatory factor 7, full length, phosphomimetic (IRF7, Homo sapiens, UniProt Q92985, residues 1-503, S471D/S472D/S475D/S476D/S477D/S483D/S484D/S487D)
Target sequence (chain): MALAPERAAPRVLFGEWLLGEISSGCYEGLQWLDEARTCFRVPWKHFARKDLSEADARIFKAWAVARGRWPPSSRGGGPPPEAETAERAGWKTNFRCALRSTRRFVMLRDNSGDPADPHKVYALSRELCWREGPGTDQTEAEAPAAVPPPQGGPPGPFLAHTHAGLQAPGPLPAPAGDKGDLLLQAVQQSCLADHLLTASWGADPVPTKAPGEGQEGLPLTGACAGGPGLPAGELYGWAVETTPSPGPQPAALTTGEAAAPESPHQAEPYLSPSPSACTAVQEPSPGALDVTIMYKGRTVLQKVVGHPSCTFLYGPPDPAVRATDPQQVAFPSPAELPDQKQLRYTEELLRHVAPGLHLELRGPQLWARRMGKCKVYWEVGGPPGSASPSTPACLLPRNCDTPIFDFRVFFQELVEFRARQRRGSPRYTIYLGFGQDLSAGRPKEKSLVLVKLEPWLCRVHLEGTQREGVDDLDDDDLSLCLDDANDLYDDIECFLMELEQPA
TGAGGACTGCTACTGCTTTAGTGCTAG: -0.261 z-score
GACGGTCTCCTGTTCCTGACGTGCTAG: 1.34 z-score
TCATACTTCTCTTTTTGACTGTGCTAG: 1.67 z-score
GACGGACTGGGTTTCGTGACGTGCTAG: 0.419 z-score
TTAGATTTGAGTCTCGATTAGTGCTAG: 0.095 z-score
TTAAGTTCCCTTTTCCTTTAGTGCTAG: 3.27 z-score
GACGGGTTCCTTTCCCTGACGTGCTAG: 1.46 z-score
TTAGGTCTCCTACTGATTTAGTGCTAG: 0.359 z-score
TCAGGACTGGACACTGGGTTAGTGCTA: -0.897 z-score
TCATTTATGCTTTCTTTAACTGTGCTA: 1.78 z-score
TAAGGTTTCGGGTTTCGGTTAGTGCTA: 10.4 z-score
TCATTTTTTTTCTTTAAACTGTGCTAG: 1.62 z-score
TTAGGTCTCCTTTTCCTTTCGTGCTAG: 3.05 z-score
GACGGACTAGACTTTCGGGACGTGCTA: 1.83 z-score
TTAGGTTTACTTATCCTTTAGTGCTAG: 1.07 z-score
CACGGTATCCTACTGCTGACGTGCTAG: 0.897 z-score
GACGGTTTCCTTCTCCTTACGTGCTAG: 3.19 z-score
TTAGATTTCAGTTTCGATTTGTGCTAG: 13.1 z-score
CAGAGCCTCAGGCCTCACACAGTGCTA: -0.86 z-score
GACGATTTCGGATATCGAGACGTGCTA: 1.41 z-score
GACGGGCTGGGTTTCGGGACGTGCTAG: 0.606 z-score
AGTTCTAAGGATTTCAGTTTGTGCTAG: 0.804 z-score
TTACATATCAGTCTCGATTAGTGCTAG: 1.27 z-score
CTAGGACTGGGGTATCGGTTAGTGCTA: -0.788 z-score
GCCGGTATCCTTTTCCTGACGTGCTAG: 1.49 z-score

Some of these lines once more (study 4):
TTAGGTCTCCTACTGATTTAGTGCTAG: 0.359 z-score
TCAGGACTGGACACTGGGTTAGTGCTA: -0.897 z-score
TCATTTATGCTTTCTTTAACTGTGCTA: 1.78 z-score
TAAGGTTTCGGGTTTCGGTTAGTGCTA: 10.4 z-score
TCATTTTTTTTCTTTAAACTGTGCTAG: 1.62 z-score
TTAGGTCTCCTTTTCCTTTCGTGCTAG: 3.05 z-score
GACGGACTAGACTTTCGGGACGTGCTA: 1.83 z-score
